Results gathered from unrelated publications.
A part holds a random share of what one study measured. Changes are numbered by the printed parent chain.

Block 1
Target: Sal-like protein 4, full length isoform A (SALL4, Homo sapiens, UniProt Q9UJQ4, residues 1-1053)
Sequence of UniProt Q9UJQ4 (whole entry, looked up): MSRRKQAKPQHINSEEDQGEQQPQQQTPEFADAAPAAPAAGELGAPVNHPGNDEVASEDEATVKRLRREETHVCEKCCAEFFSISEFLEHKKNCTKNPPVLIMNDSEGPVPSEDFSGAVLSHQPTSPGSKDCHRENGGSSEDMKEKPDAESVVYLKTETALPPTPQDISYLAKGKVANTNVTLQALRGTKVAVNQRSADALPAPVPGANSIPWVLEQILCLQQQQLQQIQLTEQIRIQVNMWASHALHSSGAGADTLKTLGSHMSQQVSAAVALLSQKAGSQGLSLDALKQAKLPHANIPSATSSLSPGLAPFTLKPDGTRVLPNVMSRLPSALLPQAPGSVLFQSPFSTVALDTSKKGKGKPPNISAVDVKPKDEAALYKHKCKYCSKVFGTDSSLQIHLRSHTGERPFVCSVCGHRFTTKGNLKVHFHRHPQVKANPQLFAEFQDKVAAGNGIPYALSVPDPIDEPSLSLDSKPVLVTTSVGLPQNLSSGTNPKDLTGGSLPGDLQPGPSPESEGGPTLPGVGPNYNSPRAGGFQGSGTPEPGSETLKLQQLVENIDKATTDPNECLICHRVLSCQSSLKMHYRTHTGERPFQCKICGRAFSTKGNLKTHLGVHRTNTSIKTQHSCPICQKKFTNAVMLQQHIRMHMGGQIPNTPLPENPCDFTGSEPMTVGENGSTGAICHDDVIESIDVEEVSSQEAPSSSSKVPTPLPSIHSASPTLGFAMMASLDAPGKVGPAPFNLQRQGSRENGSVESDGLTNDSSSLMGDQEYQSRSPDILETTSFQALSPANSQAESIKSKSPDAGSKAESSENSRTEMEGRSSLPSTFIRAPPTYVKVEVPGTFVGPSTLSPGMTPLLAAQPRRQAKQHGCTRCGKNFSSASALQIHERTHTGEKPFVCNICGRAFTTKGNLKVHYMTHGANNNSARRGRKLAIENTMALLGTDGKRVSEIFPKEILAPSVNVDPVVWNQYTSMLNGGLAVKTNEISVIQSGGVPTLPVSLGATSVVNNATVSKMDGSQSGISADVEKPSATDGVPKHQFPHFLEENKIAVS
Technique: universal PBM
Molecule type: double-stranded DNA, one strand shown
Sample: in vitro
Concentration: 600 nM
Notes: 8-mer, flanks averaged, mean of replicates
Reading: higher = stronger binding
| Sequence | E-score |
| --- | --- |
| CACGTTGC | -0.197 |
| CCGCAAAC | -0.0828 |
| AACGCACT | -0.0494 |
| CTTCGCGA | -0.15 |
| GCACCGAC | -0.276 |
| TAAACCAA | 0.209 |
| ACTTCGAA | 0.135 |
| CGTCTGAA | -0.063 |
| CGATCTTA | -0.113 |
| GAACCACA | 0.0351 |
| GCGCCCGC | -0.313 |
| CAAAAGCC | -0.0311 |
| GACGAATC | -0.035 |
| CGCCCCGC | -0.331 |
| ACAAATGC | 0.216 |
| CCTATCGC | -0.244 |
| ACCGATGA | 0.103 |
| CTCGATTC | -0.0349 |
| ACAATCTC | -0.0313 |
| AGAACATA | 0.237 |
| CTGAAGAA | -0.0672 |
| GCCGGCCC | -0.424 |
| GCATACTA | 0.0593 |
| GAATCCGA | -0.0291 |
| GGCTTACA | -0.035 |

Block 2
Target: RNA binding protein fox-1 homolog 2, RRM domain, GST-SBP tag (RBFOX2, Homo sapiens, UniProt O43251-10, residues 100-194)
Technique: RNA Bind-n-Seq
Molecule type: RNA
Sample: in vitro
Concentration: 365 nM
Notes: natural RNA segment, single round, ends assumed
Reference: no-protein control
Reading: higher = stronger binding
Constant ends, left off below: GGGAGUUCUACAGUCCGACGAUC … UGGAAUUCUCGGGUGCCAA
Target sequence (chain): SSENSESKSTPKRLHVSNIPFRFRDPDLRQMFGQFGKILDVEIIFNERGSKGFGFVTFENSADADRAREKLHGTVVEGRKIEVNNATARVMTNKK
| Sequence | RBNS enrichment (R) |
| --- | --- |
| CAAACUAGGAACAAAUUCUGAGUGUACCAAUGGCUGCGAAUGCUAUGAUUUUGUGACUUCUGGUCAGUCGGUCAGCAGGCCGGGAUGUAUCAUUACCCUGAGCGAGCUGG | 0.436 |
| CUGUGCCUAGUUCCUGUGGCCAGGAGGUUGGUGACUGAAACAUUCACACAGGGCUCUUUGAUGGACCCACGAACGCUCUUAGCUUUCUCAGGGGGUCAGCAGAGUUAUUG | 0.336 |
| GGGGUCGUGGGGACGGGAACAUGUGCCCGACCGCUCCAUCCCCUCCUCCUCCUUAGGAUGCAUAACCUACCUUGUCUUUUUUUUUUUUAAUUUUCUUUCCAGGUAGAGUA | 0.659 |
| UAUAUGGACUAUAUUGUCUCCCUGUCCUUGUUCUGAUAAUGUACAGACUCAGUUUUUCUUAUGUUAUACAAAAUAUUAGCCAUGCAUUUAUUAUGUAAAGGACUACCCAU | 0.391 |
| AGAAAAGCAGCCAUUGCGUGCCCUCUGUGAAGAGUUCUAACUUGGAGAACAAAUCUCUCAGACAAAUGACUUGUACUAAAUUUGGCUUUGGUUUCCAAGCCAAGGGAAAA | 0.272 |
| ACAGUAAUAAGUUGACUCACACAGACUUAAAGCCUGAAAACAUCUUAUUUGUGCAGUCUGACUACACAGAGGCGUAUAAUCCCAAAAUGAAACGUGAUGAACGCACCUUA | 0.34 |
| ACAUAUUAGGGAAAAAAUGCAGUUAAGUUGAUCUUUCUUUUAAUUUGGUUUGGUUCAGCAGUCAGCAGUUACAUACAUAACACAACCCGCAAGGACAGUGAAUCCGCUCC | 0.316 |
| UCUGCAUGAGUUCAAACCUGUCGUUCCUCCUUACAGUAGGAAUGGCACAUAUUGAGGCGAUCAUAAGUCUUAACUUUUCAAAAUUUUAAAUAAAAGACUUUGCACAUUGA | 17.7 |
| UCAGCCUCUUAGAGAGGAGCCCUUGUAUGGCCAGGUCACACGGCAUCCCAGUGGCCGGGGAGUCACCCCCUCACGCAGAGACCUUGCCUGUGCCUCAGAUGGCUUGCUGC | 0.377 |
| UUUGGAACAUUUAUGUAAGAUUGUCAUAUGAAAUGUAUUUGGGAACUACAUUAAACUUUUAACUAAACCCUGGCCUCUGCAUGCCCCAGGGGCCUCAGGAAGCCCCUGAC | 12.9 |
| CCUCCUCAGUGUUCCACAAGCUUCAGGUCAUCAGGUCGGUCCAACUGAAGGCAUGAAAAUCAAGUGUUCCCUGGAGUUUUGAAGCGAAGAUUCAGGGACAAGUUGAAAGG | 0.755 |
| GGUUGGGUUUAGAAAGAUCUCAGGAAAAUGAGUUUCUCUUCCCUCAGGGUGGCUGUGAUACAGGUUCCCCAUGUCCUUGCCGUGGGUCAUCCUUGCUGUGGGUCAUCCUU | 0.277 |

Block 3
Target: Ras GTPase-activating protein-binding protein 1, C-terminal RGG region (G3BP1, Homo sapiens, UniProt Q13283)
Sequence of UniProt Q13283 (whole entry, looked up): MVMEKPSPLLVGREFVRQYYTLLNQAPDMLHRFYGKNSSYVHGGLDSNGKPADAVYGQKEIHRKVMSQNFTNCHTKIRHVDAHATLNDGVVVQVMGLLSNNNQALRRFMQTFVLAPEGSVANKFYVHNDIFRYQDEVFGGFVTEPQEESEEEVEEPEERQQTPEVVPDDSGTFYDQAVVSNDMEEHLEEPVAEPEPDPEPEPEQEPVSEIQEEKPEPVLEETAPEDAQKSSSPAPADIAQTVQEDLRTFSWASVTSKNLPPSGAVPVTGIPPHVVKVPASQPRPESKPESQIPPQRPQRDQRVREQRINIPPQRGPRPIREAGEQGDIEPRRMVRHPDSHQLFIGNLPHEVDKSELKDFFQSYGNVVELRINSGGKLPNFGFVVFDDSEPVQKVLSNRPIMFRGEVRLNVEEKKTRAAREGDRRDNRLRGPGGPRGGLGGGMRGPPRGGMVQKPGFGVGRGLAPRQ
Technique: RNA Bind-n-Seq
Molecule type: RNA
Sample: in vitro
Concentration: 1 µM
Notes: whole 134-nt RNA, ends assumed
Added: 150 mM KCl
Reference: input library
Reading: higher = stronger binding
Constant ends, left off below: GGGAGUUCUACAGUCCGACGAUC … UGGAAUUCUCGGGUGUCAAGG
| Sequence | log2 enrichment |
| --- | --- |
| ACCAUGCAGGUGGGCAUCUUUGGGAAGUGGGGCAAGGGGGGGAUGGGGAGGGGGGUAACACUUUGGGAACAGGUGGUCCCAGGUCGUUUC | 2.09 |
| CAAGUCCUGUGCUACACAUCGUAUGUACCGAAUCGGGGUGGGGUUUGGGGUGGGGAAAGUAUUAUGUUACGCCGUUCGGAUCUGCACUUC | 3.06 |
| UGGGAGGUGGAUUUUGUUUAUUUUUUUAGCUCAUUUCCAGGGGUAGGAAUUUUUUUUUAAUAUGUGUCAUGAAUAAAGUUGUUUUUGAAA | 2.69 |
| UGGACAGGUUGCUGGACCCCGCCAACAGAGCCCACCUGGGCCUGGAGGAGCAGCUGAGAGAGCUGCUGGACAUGCUCGACCUCACCUGCG | -1 |
| GUCCUGUGCUACACAUCGUAUGUACCGAAUCGGGGUGGGGUUUUUGGGGUUUUUGGGGAAAGUAUUAUGUUACGCCGUUCGGAUCUGCAC | 1.04 |
| GUCCUGUGCUACACAUCGUAUGUACCGAAUCGGGUUUUUGGGUUUUUUUGGGUUUGGGAAAGUAUUAUGUUACGCCGUUCGGAUCUGCAC | -0.283 |
| CAAGUCCUGUGCUACACAUCGUAUGUACCGAAUCGGUUUGGUUUUUUUGGUUUGGAAAGUAUUAUGUUACGCCGUUCGGAUCUGCACUUC | -1.62 |
| UGGCCCUGGUGGCAUGCGGGGAGGAAGAGGUGGCCUCAUGGAUCGUGGUGGUCCCGGUGCAAUGUUCAGAGGUGGCCGUGGUGGAGACAG | 1.49 |
| CCUGUGCUACACAUCGUAUGUACCGAAUCGGGGUUUUUUGGGGUUUUUUGGUUUUUUGGGAAAGUAUUAUGUUACGCCGUUCGGAUCUGC | -1.33 |
| AGUCCUGUGCUACACAUCGUAUGUACCGAAUCGGUUUUUGGGUUUUUGGGGUUUUUGGAAAGUAUUAUGUUACGCCGUUCGGAUCUGCAC | -1.16 |
| UGGGAGGUGGAUUUUGUUUAUUUUUUUAGCUCAUUUCCAGGGGUGGGAAUUUUUUUUUAAUAUGUGUCAUGAAUAAAGUUGUUCUUGAAA | 3.96 |
| UUGCGAAAAGGACCAAUUCCAGUGCCGGAACGAGCGCUGCAUCCCCUCUGUGUGGAGAUGCGACGAGGACGAUGACUGCUUAGACCACAG | 0.511 |
| AAGUCCUGUGCUACACAUCGUAUGUACCGAAUCGGGGUUUUGGGUUUUGGUUUUGGGAAAGUAUUAUGUUACGCCGUUCGGAUCUGCACU | -1.26 |
| CCUCAAGUCCUGUGCUACACAUCGUAUGUACCGAAUCGGGUGGGGUGGGUGGAAAGUAUUAUGUUACGCCGUUCGGAUCUGCACUUCCAG | 1.45 |

Block 4
Target: CCNA2, cyclin fold, Cln2 fusion (human)
Technique: yeast growth competition, sequencing
Sample: yeast
Notes: strong parent motif
Reference: not given
Reading: higher = stronger binding
Starting sequence: BRCA2 docking peptide (human); PSIKRNLLNEFDR; partner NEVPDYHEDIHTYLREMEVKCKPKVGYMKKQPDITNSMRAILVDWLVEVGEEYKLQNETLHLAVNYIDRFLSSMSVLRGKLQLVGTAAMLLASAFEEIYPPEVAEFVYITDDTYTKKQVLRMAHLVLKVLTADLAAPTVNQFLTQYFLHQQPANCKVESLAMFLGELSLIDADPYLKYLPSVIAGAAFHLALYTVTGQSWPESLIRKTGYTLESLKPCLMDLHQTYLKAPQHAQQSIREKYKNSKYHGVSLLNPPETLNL
| Variant | normalised enrichment score |
| --- | --- |
| PSIKRNILNEFDR [L7I] | 1.86 |
| PSITRNLLNEFDR [K4T] | 1.82 |
| CSIKRNLLNEFDR [P1C] | 5.63 |
| NSIKRNLLNEFDR [P1N] | 5.59 |
| PSNKRNLLNEFDR [I3N] | 1.44 |
| PSIWRNLLNEFDR [K4W] | 1.22 |
| PSIKRNLLNEFCR [D12C] | 4.84 |
| PSIKRNLLNLFDR [E10L] | 2.7 |
| PSIYRNLLNEFDR [K4Y] | 3.28 |
| HSIKRNLLNEFDR [P1H] | 6.39 |
| PSIKRNLLNWFDR [E10W] | 2.29 |
| PSIKRNKLNEFDR [L7K] | 0.583 |
| PSMKRNLLNEFDR [I3M] | 3.7 |
| PSIKRNLLNRFDR [E10R] | 0.888 |
| PSIKRSLLNEFDR [N6S] | 5.32 |
| PSIDRNLLNEFDR [K4D] | 0.517 |
| PSIKRNLLNETDR [F11T] | 1.22 |

Block 5
Target: Interferon regulatory factor 7, full length, phosphomimetic (IRF7, Homo sapiens, UniProt Q92985, residues 1-503, S101K/S471D/S472D/S475D/S476D/S477D/S483D/S484D/S487D)
Sequence of UniProt Q92985 (whole entry, unmodified, looked up): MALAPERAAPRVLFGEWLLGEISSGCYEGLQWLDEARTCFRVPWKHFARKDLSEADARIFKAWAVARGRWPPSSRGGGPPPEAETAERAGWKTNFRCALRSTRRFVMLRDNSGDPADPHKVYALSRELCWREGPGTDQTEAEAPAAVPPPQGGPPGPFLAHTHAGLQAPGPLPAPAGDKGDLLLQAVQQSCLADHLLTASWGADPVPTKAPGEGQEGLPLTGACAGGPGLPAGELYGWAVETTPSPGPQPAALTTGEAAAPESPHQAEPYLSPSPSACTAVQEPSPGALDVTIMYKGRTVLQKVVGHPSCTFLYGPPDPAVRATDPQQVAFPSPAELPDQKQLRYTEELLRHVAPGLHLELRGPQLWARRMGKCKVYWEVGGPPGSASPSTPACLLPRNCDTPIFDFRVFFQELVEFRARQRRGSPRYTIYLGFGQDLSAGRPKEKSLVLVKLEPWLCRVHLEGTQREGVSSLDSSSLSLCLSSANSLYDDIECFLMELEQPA
Technique: protein-binding microarray
Molecule type: double-stranded DNA, one strand shown
Sample: in vitro
Concentration: 250 nM
Notes: 60-bp whole probe
Added: salmon DNA 0.4 mg/ml
Reference: random background probes
Reading: higher = stronger binding
Constant ends, left off below: GCCTAGCAC … GTCTTGATTCGCTTGACGCTGCTG
| Sequence | log fluorescence [z-score] |
| --- | --- |
| GACGGTATCGGTCTCAGGACGTGCTAG | 0.693 |
| TCAAATGACCTTCTCAGACTGTGCTAG | -0.458 |
| TTAGGACTGGGGACTGGGTTAGTGCTA | -0.299 |
| TCAATTATATATTTATGACTGTGCTAG | 0.575 |
| GACGGTTTTGGGTATCGGGACGTGCTA | 1.15 |
| GACGGTTTCCTACTCCTGACGTGCTAG | 1.96 |
| ATTTTTTTTTTCATCATTGCGTGCTAG | 0.718 |
| GACGGTTTCGACTAACGGGACGTGCTA | 6.25 |
| TTAGATATCAGTCTCGATAAGTGCTAG | 0.346 |
| GCCGAACTGAGACTGGAGACGTGCTAG | -0.183 |
| TTAGATATCAGTATCTATTAGTGCTAG | 0.353 |
| TCATGTTTCTGTGTCACACTGTGCTAG | 1.39 |
| TTAGGTCTCGGTTTCGGTTGGTGCTAG | 11.1 |
| TAAGGTTTCCAATCAGCCCCGTGCTAG | 3.19 |
| TTAGGTTTGGGTTTCGGTTAGTGCTAG | 7.11 |
| GCTCCAGGAAGCCTTGCCTGGTGCTAG | -0.599 |
| AGAAACTTTTTTCTGATTGAGTGCTAG | 1.7 |
| TCAAATTAGAATTTAAAACTGTGCTAG | 0.133 |
| GACGATATCGGCTTTCGAGACGTGCTA | 0.0516 |
| TTAGATTTCGGGACTGAATTAGTGCTA | 0.464 |
| TTTGATATCAGTCTCGATTAGTGCTAG | 1.41 |
| GACGGTCTTCTACTGCTGACGTGCTAG | -0.441 |
| GACGTACTGGACTTTCGGGACGTGCTA | -0.125 |
| TACTGTGTGCATCTATCTTAGTGCTAG | -0.322 |
| TTAGGTTTCCTTTTCCGTTAGTGCTAG | 6.49 |

A few entries again (block 4):
| Variant | normalised enrichment score |
| --- | --- |
| CSIKRNLLNEFDR [P1C] | 5.63 |
| PSIKRNLLNRFDR [E10R] | 0.888 |
| PSIKRNLLNWFDR [E10W] | 2.29 |
| PSIKRSLLNEFDR [N6S] | 5.32 |
| PSIWRNLLNEFDR [K4W] | 1.22 |
| PSITRNLLNEFDR [K4T] | 1.82 |
| NSIKRNLLNEFDR [P1N] | 5.59 |
